Published values collected from several papers.
Each numbered part is a random draw from the data of one study; scales do not carry over between parts. Positions count from the first letter of the parent shown.

Series 1
Target: Interferon regulatory factor 7, full length, phosphomimetic (IRF7, Homo sapiens, UniProt Q92985, residues 1-503, S101K/S471D/S472D/S475D/S476D/S477D/S483D/S484D/S487D)
UniProt Q92985, sequence (whole entry, unmodified, looked up): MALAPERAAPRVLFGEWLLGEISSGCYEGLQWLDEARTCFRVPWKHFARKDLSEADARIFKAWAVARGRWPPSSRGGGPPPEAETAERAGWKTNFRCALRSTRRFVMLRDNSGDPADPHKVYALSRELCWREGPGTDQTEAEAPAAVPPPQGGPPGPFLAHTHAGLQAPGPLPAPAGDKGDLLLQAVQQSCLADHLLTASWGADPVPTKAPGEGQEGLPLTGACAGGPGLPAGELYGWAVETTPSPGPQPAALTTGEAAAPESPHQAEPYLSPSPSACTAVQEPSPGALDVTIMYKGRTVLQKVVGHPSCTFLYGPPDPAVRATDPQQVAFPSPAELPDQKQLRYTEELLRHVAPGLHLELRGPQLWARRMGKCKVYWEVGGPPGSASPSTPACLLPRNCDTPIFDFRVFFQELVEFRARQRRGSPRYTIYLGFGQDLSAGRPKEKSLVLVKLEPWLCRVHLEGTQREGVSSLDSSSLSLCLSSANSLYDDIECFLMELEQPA
Method: protein-binding microarray
Form: double-stranded DNA, one strand shown
Sample: in vitro
Tested at: 250 nM
Notes: 60-bp whole probe
Added: salmon DNA 0.4 mg/ml
Relative to: random background probes
Reading: higher = stronger binding
Constant ends, left off below: GCCTAGCAC … GTCTTGATTCGCTTGACGCTGCTG
Strand | log fluorescence
CACGATATCGGGTATCGAGACGTGCTA | 0.323 z-score
TCATCTCTGTCCCTGTTACTGTGCTAG | 0.806 z-score
AAACGGGCTTCTTTTTCTCAGGTGCTA | -0.0919 z-score
GACGGTCTCGGTATGGGGACGTGCTAG | 1.54 z-score
GACGATATCCGTATCGAGACGTGCTAG | 0.171 z-score
TTAGATATCAGTTTCGGTTAGTGCTAG | 8.58 z-score
TAGGTTTCACTTTCCAAAACGTGCTAG | 11.9 z-score
TTAGAAGTGAGTATCGATTAGTGCTAG | 0.262 z-score
GACAATTCCAGTTTCGAGACGTGCTAG | 4.95 z-score
TCACTTTCCACTTGTCTTTTCGTGCTA | 3.7 z-score
TTAGATTTCGGGTATCGACTAGTGCTA | 0.893 z-score
TCAATTCTCTGTTTATGACTGTGCTAG | 2.43 z-score
TTAGGACTGCTTATCCTATAGTGCTAG | 0.213 z-score
GGCATTTTCGGGTAGATGGCCGTGCTA | 0.71 z-score
TCATACATGTGTTTAAAACTGTGCTAG | 0.333 z-score
TTAGGTATCGGTCTTGGTTAGTGCTAG | 0.904 z-score
GACGGTGTCGGTTCCGGGACGTGCTAG | -0.271 z-score

Series 2
Target: ABI1, truncated, D143A, DHFR fusion (Arabidopsis thaliana)
Method: DHFR PCA, deep sequencing
Sample: yeast
Notes: methotrexate growth selection, single substitutions
Added: (+)-ABA 0.032 µM
Relative to: wild-type fitted maximum
Reading: higher = stronger binding
Starting sequence: PYL1, truncated, DHFR fusion (Arabidopsis thaliana); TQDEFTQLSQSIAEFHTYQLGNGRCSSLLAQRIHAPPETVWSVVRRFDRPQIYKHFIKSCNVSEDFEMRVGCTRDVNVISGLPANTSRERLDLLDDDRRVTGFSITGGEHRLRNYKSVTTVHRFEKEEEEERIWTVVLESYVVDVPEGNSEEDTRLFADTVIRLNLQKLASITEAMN; partner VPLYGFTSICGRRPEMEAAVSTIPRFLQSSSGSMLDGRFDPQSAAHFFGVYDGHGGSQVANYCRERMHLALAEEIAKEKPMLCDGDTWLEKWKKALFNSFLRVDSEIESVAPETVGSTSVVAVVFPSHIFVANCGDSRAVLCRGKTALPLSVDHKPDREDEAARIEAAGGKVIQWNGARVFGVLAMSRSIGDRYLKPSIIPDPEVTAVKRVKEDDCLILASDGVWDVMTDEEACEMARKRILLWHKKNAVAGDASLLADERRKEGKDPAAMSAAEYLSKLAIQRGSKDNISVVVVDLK
Substitution | relative binding score [%]
S11N | 4.6
E152N | -0.352
K116E | -2.89
S80A | 10.8
K126Y | 28.5
E174W | -4.4
D97E | 46.8
T160H | 4.81
T1S | 23.8
N149I | 34.7
G71C | -1.24
G71L | -0.0861
T154Q | -0.987
I79P | 2.35

Series 3
Target: Histone acetyltransferase KAT6A, both winged helices, GST fusion (KAT6A, Homo sapiens, UniProt Q92794, residues 1-181)
Method: protein binding microarray
Form: double-stranded DNA, one strand shown
Sample: in vitro
Tested at: not given
Notes: 8-mer, flanks averaged, mean of 2 arrays, mostly near background
Relative to: not given
Reading: higher = stronger binding
Target sequence (chain): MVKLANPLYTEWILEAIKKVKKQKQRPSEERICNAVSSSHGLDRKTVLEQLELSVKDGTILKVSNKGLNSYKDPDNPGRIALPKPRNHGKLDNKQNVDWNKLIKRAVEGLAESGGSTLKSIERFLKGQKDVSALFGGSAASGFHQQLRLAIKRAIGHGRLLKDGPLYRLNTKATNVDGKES
Strand | E-score
CAGATTAG | -0.179
CGAGATCC | 0.0756
CATTGTTC | -0.0102
ATTCCGTC | 0.178
ACGTATAG | -0.00342
CACACTGC | -0.0188
CATAGATC | -0.0926
CCGAGCAA | -0.00561
GTAAGTGA | -0.0752
CTCCCCAA | -0.172
CGCCCGCG | 0.319
CACTAGTC | -0.115
TCACTGAA | -0.108
CGAGTCCA | -0.079
GCTTTGGA | 0.0447
AGTCGAGG | -0.141
AGTGTGCA | -0.222
AGCTAGCA | -0.0986
GAATAAAA | 0.0451
GGTACGAA | -0.101
ACCGGACC | 0.0969
ACCCCTAG | -0.305
CTGCGTGC | 0.147
CGCTCAGA | 0.0815
CCCCATTC | -0.121

Series 4
Target: RING finger protein unkempt homolog, zinc fingers 1-6, GST-SBP tag (UNK, Homo sapiens, UniProt Q9C0B0, residues 30-357)
UniProt Q9C0B0, sequence (30-357, looked up): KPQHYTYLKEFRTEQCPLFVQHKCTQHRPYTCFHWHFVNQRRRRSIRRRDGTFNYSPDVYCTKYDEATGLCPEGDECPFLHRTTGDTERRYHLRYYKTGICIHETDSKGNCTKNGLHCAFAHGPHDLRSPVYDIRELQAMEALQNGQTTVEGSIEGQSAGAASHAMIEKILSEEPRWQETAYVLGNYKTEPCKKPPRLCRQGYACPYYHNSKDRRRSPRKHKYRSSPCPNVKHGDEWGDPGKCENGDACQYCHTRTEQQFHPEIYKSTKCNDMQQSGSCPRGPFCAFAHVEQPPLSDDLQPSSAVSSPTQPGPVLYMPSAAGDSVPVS
Method: RNA Bind-n-Seq
Form: RNA
Sample: in vitro
Tested at: not given
Notes: RNA with constant flanks, human-mouse chimeric sites, ends assumed
Relative to: input RNA pool
Reading: higher = stronger binding
Constant ends, left off below: GGGAGUUCUACAGUCCGACGAUC … CAACAGAGGAUUGAGCAUCA
Strand | bound/input enrichment
GAGCCCAGCCGGCAGUUUGUAAAGGACUCAAUUCGGCUGGUUAAAAGAUGCACCAAACCCGACAGAAAAGAAUUCCAGAAGAUUGCCAUGGCAACAGCUAUAGGAUUUGCUAUAAUGGGA | 0.325 ratio
UCAUUUUUCUCUUUUCUGAUCGUCAGGUAGGAAAAGCCUAAAGAUUAGGUUGUAAGAAAAACAGAAGCCAUGUUUCGAAGACCUGUAUUACAGGUAUUUCGUCAGUUUGUAAGACAUGAG | 1.47 ratio
ACUCAGAGAUCCACCUCCCAAAGUGCUGGGAGUAAAGGUGUGGCCACUCAAUUCUCCUUGAUGGAUAUAUAUUUUUUUUAAUAUGAAUCUUCCUGUUCUUCAUCCAGAGAAAGAUUUGUU | 0.477 ratio
GCGGCAGAAUCAUGGAGGACAUGAUGGACUUGCCCAGAGCGCGCGUCAACGCCAGCAUGUUACCACAGUAUAUCGACCGGCCCGUGUGCUUCGUGGGGAAGCUGGAAAAGAUUCAUCCCA | 0.143 ratio
ACCUCCCCCUCCCGCCUCACCCCACCCCCGCUUUUUGGAAAGUUUUUGGCGUUUCUUUUUUUUAGAAAUACAAAGUGAUUACAGUUUAGAGUCUAUGGGUCUAUCGAAGGGCUUGACGGA | 1.47 ratio
UCCCAAAUCCAGCAGCUAGAAGGAGCCAAUUGUUUGUGCCUGGAAAUACAGGGAAGGCGAUAACAUUGUACAUUGGUUUACAUUUUUUCCCCCUGUGGAUUUUUCUAGAGGUCAUAGUGC | 0.797 ratio
CGCUGGCCCAAGCUGAUGGACUCUGAUGGCCUCCAUCAAGGUAUUAUGUGUGCCUUCUCUUAGUCCCUUCUGGGUUGAUGUUAUGAAUCUCAGUACUGUGGUUUGAAAGCACCAGCUUUG | 0.466 ratio
AAAGCCCAAGUAUUUUGAAAAAACUCGAACAGAUUUAACAAGGGUAGCCAGCUUGGAGUCUAGCAACUUGCCAAUGUUGCUUACCAACUGGGGGCUUGUUUUUCUUUUCUUCUUUCAAAU | 0.167 ratio

Series 5
Target: CCNA2, cyclin fold, Cln2 fusion (human)
Method: yeast growth competition, sequencing
Sample: yeast
Notes: strong parent motif
Relative to: not given
Reading: higher = stronger binding
Starting sequence: RRM2 docking peptide (human); SKTARRIFQEPTE
Substitution | normalised enrichment score
I7A | -0.0633
K2A | 0.197
R5A | 0.351
P11A | 0.66
F8A | 0.342
T12A | 0.788

Series 6
Target: ATF1, bZIP domain (human)
Method: DHFR protein complementation
Sample: yeast
Notes: single substitutions, most at no-binding floor
Relative to: wild-type JUN-FOS pair
Reading: higher = stronger binding
Starting sequence: JUN, bZIP domain (human); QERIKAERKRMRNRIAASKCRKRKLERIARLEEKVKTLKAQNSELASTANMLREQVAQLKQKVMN; partner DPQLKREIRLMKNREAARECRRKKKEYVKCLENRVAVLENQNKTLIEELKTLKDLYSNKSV
Substitution | binding fitness [natural log]
V56Q | -1.58
K36V | -1.44
L38N | -1.52
V56T | -1.36
Q41P | -1.54
S43D | -1.55
A49P | -1.53
K34Q | -1.5
K34P | -1.55
A40R | -1.44
A40T | -1.52
K36M | -1.3
K36A | -1.45
R30N | -1.51
Q55V | -1.49
T37W | -1.48

Series 7
Target: Sal-like protein 4, full length isoform B (SALL4, Homo sapiens, UniProt Q9UJQ4-2, residues 1-616)
Method: universal PBM
Form: double-stranded DNA, one strand shown
Sample: in vitro
Tested at: not given
Notes: 8-mer, flanks averaged, mean of replicates
Reading: higher = stronger binding
Strand | E-score
GCGGTTAC | -0.0843
AGTTGCGC | -0.156
ACTAAAAG | 0.118
CACTAGTG | 0.195
CTGGTCTA | -0.107
CATCGATG | 0.167
CGCCTGCC | -0.301
CCCTGGAC | -0.297
GCAGGATA | -0.0524
AATGTTCG | 0.141
CGTGCAAC | -0.107
GCCGCTAC | -0.302
AACAAAAC | 0.21
ACCATTAA | 0.261
CGGTACAA | 0.12
CTCCATCC | -0.132
GCCAGCCA | -0.243
AAAATCGT | 0.199
TGCTCACA | -0.0369
ACCGAAGT | -0.142
AAACGGCT | -0.114
CACGAGTG | -0.159
GGACTGCC | -0.244
AGGGCGAC | -0.247

Other studies, line by line
Molecule | target | test | test system | conditions | scale | quantity | result
PhoQ, residues 284 288 289 292 302 303 AEGLLW | PhoP, residues 12 14 15 18 19 NMSFL (Escherichia coli, UniProt P23836) | Sort-seq, item: YFP reporter | E. coli | PhoQ-PhoP variant library, added: 10 µM Mg2+ | relative to: high Mg2+ state, higher = stronger signaling | fold induction | 11.4

For quick reference, copied from above (series 1):
Strand | log fluorescence
CACGATATCGGGTATCGAGACGTGCTA | 0.323 z-score
TCATCTCTGTCCCTGTTACTGTGCTAG | 0.806 z-score
AAACGGGCTTCTTTTTCTCAGGTGCTA | -0.0919 z-score
GACGGTCTCGGTATGGGGACGTGCTAG | 1.54 z-score
GACGATATCCGTATCGAGACGTGCTAG | 0.171 z-score
TTAGATATCAGTTTCGGTTAGTGCTAG | 8.58 z-score
TAGGTTTCACTTTCCAAAACGTGCTAG | 11.9 z-score
TTAGAAGTGAGTATCGATTAGTGCTAG | 0.262 z-score
GACAATTCCAGTTTCGAGACGTGCTAG | 4.95 z-score
TCACTTTCCACTTGTCTTTTCGTGCTA | 3.7 z-score
TTAGATTTCGGGTATCGACTAGTGCTA | 0.893 z-score
TCAATTCTCTGTTTATGACTGTGCTAG | 2.43 z-score
TTAGGACTGCTTATCCTATAGTGCTAG | 0.213 z-score
GGCATTTTCGGGTAGATGGCCGTGCTA | 0.71 z-score
TCATACATGTGTTTAAAACTGTGCTAG | 0.333 z-score
TTAGGTATCGGTCTTGGTTAGTGCTAG | 0.904 z-score
GACGGTGTCGGTTCCGGGACGTGCTAG | -0.271 z-score
